Assay results pooled from the literature.
Each numbered part is a random draw from the data of one study; scales do not carry over between parts. Substitutions count along the parent as printed.

Set 1
Target: PABPC1L2, full length, GST fusion (mouse, UniProt A0ABA7IW68)
Technique: RNAcompete
Molecule type: RNA
Sample: in vitro
Concentration: 20 nM
Notes: 7-mer, probes averaged, single round
Relative to: mean of 7-mers
Reading: higher = stronger binding
Construct (chain): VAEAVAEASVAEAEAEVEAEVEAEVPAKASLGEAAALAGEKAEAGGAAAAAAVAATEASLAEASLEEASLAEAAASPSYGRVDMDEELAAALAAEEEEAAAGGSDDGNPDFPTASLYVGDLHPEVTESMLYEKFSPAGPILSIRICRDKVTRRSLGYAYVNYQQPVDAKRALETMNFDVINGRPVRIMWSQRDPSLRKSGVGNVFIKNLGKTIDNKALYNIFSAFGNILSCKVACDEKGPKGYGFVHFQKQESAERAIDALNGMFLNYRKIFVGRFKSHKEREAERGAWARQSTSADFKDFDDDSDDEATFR
Strand	7-mer Z-score
CUUAUCA	-0.153
CUCCCGG	-0.345
CCAGACU	-0.34
CGAUGAA	0.0533
UUACAGU	-0.249
AUGCUUG	-0.242
UAUUCGA	-0.132
GGACGCA	0.278

Set 2
Target: FOXO3, forkhead domain (mouse, UniProt Q9WVH4, residues 31-263)
Sequence of UniProt Q9WVH4 (31-263, looked up): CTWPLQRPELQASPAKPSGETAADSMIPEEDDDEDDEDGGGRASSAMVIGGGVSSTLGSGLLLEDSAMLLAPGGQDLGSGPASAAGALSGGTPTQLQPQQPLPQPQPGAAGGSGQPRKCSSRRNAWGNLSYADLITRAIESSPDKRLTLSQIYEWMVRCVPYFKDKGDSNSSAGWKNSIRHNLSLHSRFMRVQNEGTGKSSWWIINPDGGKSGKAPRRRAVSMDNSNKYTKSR
Technique: protein-binding microarray
Molecule type: hairpin DNA
Sample: in vitro
Concentration: not given
Notes: whole hairpin DNA, median over replicate spots
Relative to: not given
Reading: higher = stronger binding
Shared flanks, not repeated: GAGGCCA … TGGCCTCACACTC
Strand	median fluorescence [a.u.]
TGCAAACGACGCCTCCTGGCGTCGTTTGCA (5mC at 14 30)	4750
TGCAGACAACGCCTCCTGGCGTTGTCTGCA (5mC at 33)	4620
TGCAAGCAACGCCTCCTGGCGTTGCTTGCA (5mC at 32)	5660
TGTAGACAACGCCTCCTGGCGTTGTCTACA (5mC at 33)	4080
TGTACGCAACGCCTCCTGGCGTTGCGTACA	4400
TGTAACTAACGCCTCCTGGCGTTAGTTACA	3550
GGTAAACAACGCCTCCTGGCGTTGTTTACC	5660
TGTGAACAACGCCTCCTGGCGTTGTTCACA (5mC at 34)	4160

Set 3
Partner: ARF11 500-622 (Arabidopsis thaliana, UniProt Q9ZPY6)
Technique: two-hybrid
Relative to: out of 4 tests
Reading: higher = firmer interaction
B1: ARF8 699-811 (Arabidopsis thaliana, UniProt Q9FGV1); chain NSSNQTKNFVKVYKSGSVGRSLDISRFSSYHELREELGKMFAIEGLLEDPLRSGWQLVFVDKENDILLLGDDPWESFVNNVWYIKILSPEDVHQMGDHGEGSGGLFPQNPTHL
B2: IAA33 (Arabidopsis thaliana, UniProt Q9FKM7); chain MNSFEPQSQDSLQRRFHQDNSTTQQPRDTTTPFIPKPASKNHNNSNSSSGAAGRSFQGFGLNVEDDLVSSVVPPVTVVLEGRSICQRISLDKHGSYQSLASALRQMFVDGADSTDDLDLSNAIPGHLIAYEDMENDLLLAGDLTWKDFVRVAKRIRILPVKGNTRQVKRNE
B3: ARF7 1030-1164 (Arabidopsis thaliana, UniProt P93022); chain PAQTQRMRTYTKVQKRGSVGRSIDVNRYRGYDELRHDLARMFGIEGQLEDPQTSDWKLVYVDHENDILLVGDDPWEEFVNCVQSIKILSSAEVQQMSLDGNFAGVPVTNQACSGGDSGNAWRGHYDDNSATSFNR
B4: IAA29 (Arabidopsis thaliana, UniProt Q93WC4); chain MELDLGLSLSPHKSSKLGFNFDLNKHCAIEGAASCLGTEKLRFEATFGLGNVEENCYMPKQRLFALNGQPNEEDEDPLESESSIVYDDEEENSEVVGWPPVKTCMIKYGSYHHRHIRNHHHCPYHHRGRRITAMNNNISNPTTATVGSSSSSSISSRSSMYVKVKMDGVAIARKVDIKLFNSYESLTNSLITMFTEYEDCDREDTNYTFTFQGKEGDWLLRGDVTWKIFAESVHRISIIRDRPCAYTRCLF
B5: ARF6 790-935 (Arabidopsis thaliana, UniProt Q9ZTX8); chain SENPQSNTFVKVYKSGSFGRSLDISKFSSYHELRSELARMFGLEGQLEDPVRSGWQLVFVDRENDVLLLGDDPWPEFVSSVWCIKILSPQEVQQMGKRGLELLNSAPSSNNVDKLPSNGNCDDFGNRSDPRNLGNGIASVGGSFNY
B6: IAA34 (Arabidopsis thaliana, UniProt Q9C5X0); chain MYCSDPPHPLHLVASDKQQKDHKLILSWKKPTMDSDPLGVFPNSPKYHPYYSQTTEFGGVIDLGLSLRTIQHEIYHSSGQRYCSNEGYRRKWGYVKVTMDGLVVGRKVCVLDHGSYSTLAHQLEDMFGMQSVSGLRLFQMESEFCLVYRDEEGLWRNAGDVPWNEFIESVERLRITRRNDAVLPF
Construct (chain): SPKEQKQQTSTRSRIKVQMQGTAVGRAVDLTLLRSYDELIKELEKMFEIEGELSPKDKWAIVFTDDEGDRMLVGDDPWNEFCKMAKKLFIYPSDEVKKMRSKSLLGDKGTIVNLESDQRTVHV
Sequence	positive tests
B1 (ARF8 699-811)	0
B2 (IAA33)	1
B3 (ARF7 1030-1164)	0
B4 (IAA29)	0
B5 (ARF6 790-935)	1
B6 (IAA34)	1

Further values, each from its own experiment
Parent: viral docking peptide; KGVKRKLFAEDSS
Change	target	assay	test system	conditions	scale	quantity	value
KGVKDKLFAEDSS [R5D]	CCNA1, cyclin fold, Cln2 fusion (human)	yeast growth competition, sequencing	yeast	weak parent motif	relative to: not given, higher = stronger binding	normalised enrichment score	0.208

For quick reference, copied from above (set 1):
Strand	7-mer Z-score
UUACAGU	-0.249
AUGCUUG	-0.242
